{"data": "Results pooled from the literature", "note": "Compare with care: the assays were run in different laboratories. Numbers after ± are the reported error.", "UniProt Q388M1, sequence (whole entry, looked up)": "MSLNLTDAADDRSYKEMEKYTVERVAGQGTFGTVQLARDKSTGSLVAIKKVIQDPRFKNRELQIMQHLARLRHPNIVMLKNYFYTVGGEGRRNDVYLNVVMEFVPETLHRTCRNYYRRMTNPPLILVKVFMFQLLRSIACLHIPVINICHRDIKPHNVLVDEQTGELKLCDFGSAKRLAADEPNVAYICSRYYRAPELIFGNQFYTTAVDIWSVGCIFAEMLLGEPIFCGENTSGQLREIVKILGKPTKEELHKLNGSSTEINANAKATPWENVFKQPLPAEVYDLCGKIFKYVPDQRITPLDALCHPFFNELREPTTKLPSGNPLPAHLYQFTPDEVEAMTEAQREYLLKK", "UniProt P00519, sequence (whole entry, looked up)": "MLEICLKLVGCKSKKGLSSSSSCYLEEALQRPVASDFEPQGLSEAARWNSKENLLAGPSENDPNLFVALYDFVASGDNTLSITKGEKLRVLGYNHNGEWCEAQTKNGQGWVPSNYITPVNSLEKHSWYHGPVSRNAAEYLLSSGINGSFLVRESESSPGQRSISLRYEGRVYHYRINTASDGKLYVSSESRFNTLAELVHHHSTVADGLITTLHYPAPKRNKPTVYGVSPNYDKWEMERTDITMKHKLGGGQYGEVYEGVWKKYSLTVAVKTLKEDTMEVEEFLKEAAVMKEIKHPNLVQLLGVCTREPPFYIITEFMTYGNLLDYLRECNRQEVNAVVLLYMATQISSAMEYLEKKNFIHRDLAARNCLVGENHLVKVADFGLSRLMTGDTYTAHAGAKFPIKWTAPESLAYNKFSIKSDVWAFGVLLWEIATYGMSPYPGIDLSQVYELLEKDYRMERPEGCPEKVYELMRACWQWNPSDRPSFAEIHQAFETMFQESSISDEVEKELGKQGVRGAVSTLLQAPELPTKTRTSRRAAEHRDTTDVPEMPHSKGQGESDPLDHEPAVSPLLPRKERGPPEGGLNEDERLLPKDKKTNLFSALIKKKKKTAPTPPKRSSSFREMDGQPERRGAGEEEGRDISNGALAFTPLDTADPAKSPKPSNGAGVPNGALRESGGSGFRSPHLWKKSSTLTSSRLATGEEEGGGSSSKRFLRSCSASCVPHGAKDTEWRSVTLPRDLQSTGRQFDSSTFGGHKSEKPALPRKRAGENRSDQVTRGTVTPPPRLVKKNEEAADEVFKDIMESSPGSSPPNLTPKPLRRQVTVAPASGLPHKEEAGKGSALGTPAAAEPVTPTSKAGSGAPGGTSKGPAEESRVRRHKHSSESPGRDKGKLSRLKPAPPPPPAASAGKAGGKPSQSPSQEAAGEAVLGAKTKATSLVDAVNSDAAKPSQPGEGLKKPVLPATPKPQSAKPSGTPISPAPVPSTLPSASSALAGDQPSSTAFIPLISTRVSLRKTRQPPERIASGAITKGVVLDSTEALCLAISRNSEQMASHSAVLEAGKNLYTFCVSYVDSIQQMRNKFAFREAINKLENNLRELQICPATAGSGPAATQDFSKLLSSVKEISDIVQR", "UniProt Q9HD23, sequence (whole entry, unmodified, looked up)": "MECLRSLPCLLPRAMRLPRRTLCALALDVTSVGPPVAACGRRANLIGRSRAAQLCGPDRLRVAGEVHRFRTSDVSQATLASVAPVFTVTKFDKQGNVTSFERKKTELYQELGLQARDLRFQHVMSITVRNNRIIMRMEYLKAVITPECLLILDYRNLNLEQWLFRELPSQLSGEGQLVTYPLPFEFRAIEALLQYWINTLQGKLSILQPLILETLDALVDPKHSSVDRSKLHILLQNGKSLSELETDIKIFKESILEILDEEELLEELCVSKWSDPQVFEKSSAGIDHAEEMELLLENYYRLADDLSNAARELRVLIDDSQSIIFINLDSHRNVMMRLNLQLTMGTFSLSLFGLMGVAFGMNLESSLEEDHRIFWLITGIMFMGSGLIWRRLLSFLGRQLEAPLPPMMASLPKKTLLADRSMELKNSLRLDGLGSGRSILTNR", "UniProt O88704, sequence (whole entry, looked up)": "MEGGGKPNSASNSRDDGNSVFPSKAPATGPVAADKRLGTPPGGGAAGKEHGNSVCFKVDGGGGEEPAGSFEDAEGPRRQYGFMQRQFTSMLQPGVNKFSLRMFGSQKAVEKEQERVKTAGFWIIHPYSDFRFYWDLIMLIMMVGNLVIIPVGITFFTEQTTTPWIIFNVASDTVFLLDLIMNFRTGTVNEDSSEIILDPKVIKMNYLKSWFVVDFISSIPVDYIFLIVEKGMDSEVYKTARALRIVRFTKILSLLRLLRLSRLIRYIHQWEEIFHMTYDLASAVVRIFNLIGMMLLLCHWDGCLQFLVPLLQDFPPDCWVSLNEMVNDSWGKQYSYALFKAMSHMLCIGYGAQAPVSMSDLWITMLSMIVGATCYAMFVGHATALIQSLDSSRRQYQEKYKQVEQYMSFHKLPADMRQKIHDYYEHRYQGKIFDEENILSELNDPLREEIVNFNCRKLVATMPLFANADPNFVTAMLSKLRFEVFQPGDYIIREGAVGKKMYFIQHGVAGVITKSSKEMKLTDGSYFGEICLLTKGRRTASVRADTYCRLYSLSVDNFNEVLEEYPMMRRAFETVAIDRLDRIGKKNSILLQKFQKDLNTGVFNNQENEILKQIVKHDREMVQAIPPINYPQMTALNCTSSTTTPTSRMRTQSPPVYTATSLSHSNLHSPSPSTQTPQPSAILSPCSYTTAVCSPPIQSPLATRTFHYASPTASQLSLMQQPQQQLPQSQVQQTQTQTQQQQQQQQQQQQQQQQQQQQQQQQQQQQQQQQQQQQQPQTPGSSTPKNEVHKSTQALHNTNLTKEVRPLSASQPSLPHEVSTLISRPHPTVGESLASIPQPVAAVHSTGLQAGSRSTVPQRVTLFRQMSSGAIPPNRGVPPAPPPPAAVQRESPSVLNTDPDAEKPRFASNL", "UniProt P12956, sequence (whole entry, looked up)": "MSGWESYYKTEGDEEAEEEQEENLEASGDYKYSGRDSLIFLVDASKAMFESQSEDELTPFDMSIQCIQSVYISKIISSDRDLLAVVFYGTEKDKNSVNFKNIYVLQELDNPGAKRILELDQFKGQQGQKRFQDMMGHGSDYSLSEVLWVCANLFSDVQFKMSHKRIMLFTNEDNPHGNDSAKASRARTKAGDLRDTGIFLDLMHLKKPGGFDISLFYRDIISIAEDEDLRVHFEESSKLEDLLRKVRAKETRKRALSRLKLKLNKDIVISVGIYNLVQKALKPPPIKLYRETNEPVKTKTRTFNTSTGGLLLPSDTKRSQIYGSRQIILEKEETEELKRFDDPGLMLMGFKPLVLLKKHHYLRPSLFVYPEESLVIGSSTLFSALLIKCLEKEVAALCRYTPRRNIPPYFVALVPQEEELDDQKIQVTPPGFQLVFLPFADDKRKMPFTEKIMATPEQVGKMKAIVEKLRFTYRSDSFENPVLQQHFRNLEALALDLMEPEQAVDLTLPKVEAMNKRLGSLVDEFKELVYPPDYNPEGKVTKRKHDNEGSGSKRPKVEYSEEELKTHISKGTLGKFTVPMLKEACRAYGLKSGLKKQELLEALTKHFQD", "UniProt P33527, sequence (whole entry, looked up)": "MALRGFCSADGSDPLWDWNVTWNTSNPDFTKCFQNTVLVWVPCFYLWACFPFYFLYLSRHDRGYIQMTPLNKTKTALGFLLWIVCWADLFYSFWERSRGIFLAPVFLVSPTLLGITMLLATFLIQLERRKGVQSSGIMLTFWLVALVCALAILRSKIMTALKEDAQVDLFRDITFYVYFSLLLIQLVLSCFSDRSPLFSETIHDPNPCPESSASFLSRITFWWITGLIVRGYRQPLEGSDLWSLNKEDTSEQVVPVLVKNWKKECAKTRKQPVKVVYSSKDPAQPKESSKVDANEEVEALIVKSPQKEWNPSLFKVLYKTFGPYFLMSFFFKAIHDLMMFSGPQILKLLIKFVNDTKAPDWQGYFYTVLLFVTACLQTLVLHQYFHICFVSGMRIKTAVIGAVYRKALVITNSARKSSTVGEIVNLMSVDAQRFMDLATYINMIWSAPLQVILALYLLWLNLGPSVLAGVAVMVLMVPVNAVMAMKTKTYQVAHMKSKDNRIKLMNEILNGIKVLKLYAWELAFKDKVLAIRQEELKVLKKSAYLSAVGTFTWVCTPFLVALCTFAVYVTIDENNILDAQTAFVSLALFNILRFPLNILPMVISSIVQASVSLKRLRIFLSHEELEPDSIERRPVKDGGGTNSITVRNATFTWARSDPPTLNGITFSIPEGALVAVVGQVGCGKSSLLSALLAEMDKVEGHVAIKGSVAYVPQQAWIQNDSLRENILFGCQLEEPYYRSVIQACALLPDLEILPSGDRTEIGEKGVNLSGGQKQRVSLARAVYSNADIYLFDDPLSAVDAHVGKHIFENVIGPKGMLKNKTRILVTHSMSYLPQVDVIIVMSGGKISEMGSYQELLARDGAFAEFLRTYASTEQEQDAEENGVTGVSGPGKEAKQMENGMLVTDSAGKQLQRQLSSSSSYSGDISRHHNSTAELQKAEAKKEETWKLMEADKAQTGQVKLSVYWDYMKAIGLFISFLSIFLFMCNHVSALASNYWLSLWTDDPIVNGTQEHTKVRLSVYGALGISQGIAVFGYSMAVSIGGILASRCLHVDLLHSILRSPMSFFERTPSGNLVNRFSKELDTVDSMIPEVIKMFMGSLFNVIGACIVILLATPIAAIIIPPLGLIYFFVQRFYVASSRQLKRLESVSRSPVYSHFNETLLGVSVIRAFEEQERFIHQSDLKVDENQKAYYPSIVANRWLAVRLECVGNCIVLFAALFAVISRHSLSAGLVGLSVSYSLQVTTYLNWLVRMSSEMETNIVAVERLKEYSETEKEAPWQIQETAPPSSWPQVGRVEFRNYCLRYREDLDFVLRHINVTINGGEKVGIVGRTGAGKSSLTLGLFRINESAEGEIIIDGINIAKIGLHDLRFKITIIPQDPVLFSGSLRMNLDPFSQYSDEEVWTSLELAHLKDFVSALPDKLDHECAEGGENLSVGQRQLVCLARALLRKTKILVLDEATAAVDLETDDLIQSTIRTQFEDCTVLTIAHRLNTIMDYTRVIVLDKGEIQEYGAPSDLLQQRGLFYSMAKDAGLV"}
{"SMILES": "O=C1Nc2ccc3ncsc3c2/C1=C/Nc1ccc(S(=O)(=O)Nc2ccccn2)cc1", "target": "GSK3 (Trypanosoma brucei, UniProt Q388M1)", "test": "enzyme activity, inhibitor", "setting": "with: GSM peptide and ATP", "IC50 [µM]": "0.008 ± 0.002"}
{"SMILES": "CCc1cccc(CC)c1N=C=O", "target": "Potassium/sodium hyperpolarization-activated cyclic nucleotide-gated channel 1 (Hcn1, Mus musculus, UniProt O88704)", "test": "channel gating (V1/2 shift), inhibitor, two-electrode voltage clamp", "test system": "Xenopus oocytes", "IC50 [µM]": "240 ± 20"}
{"SMILES": "C[C@H]1C[C@H]2[C@@H]3CCC4=CC(=O)C=C[C@]4(C)[C@@]3(Cl)[C@@H](O)C[C@]2(C)[C@@]1(O)C(=O)CO", "target": "Tyrosine-protein kinase ABL1 (ABL1, Homo sapiens, UniProt P00519)", "test": "kinase activity, ADP luminescence", "setting": "with: 200 µM ATP", "IC50 [µM]": "> 10"}
{"SMILES": "O=C1Nc2ccccc2/C1=C/c1cnc[nH]1", "target": "GSK3, short isoform (Trypanosoma brucei, UniProt Q388M1)", "test": "enzyme activity, inhibitor", "setting": "90 min, 30 °C, with: ATP 2 µM", "IC50 [µM]": 2.44}
{"SMILES": "CC[C@H](C)[C@H](NC(=O)[C@H](CO)NC(=O)[C@H](Cc1ccc(O)cc1)NC(=O)[C@H](CC(=O)O)NC(=O)[C@H](CO)NC(=O)[C@@H](NC(=O)[C@@H](O)Cc1ccccc1)[C@@H](C)CC)C(=O)N[C@@H](C)C(=O)N[C@@H](CC(C)C)C(=O)N[C@@H](CC(=O)O)C(=O)N[C@@H](CCCCN)C(=O)N[C@H](C(=O)N[C@@H](CCCNC(=N)N)C(=O)N[C@@H](CCC(N)=O)C(=O)N[C@@H](CCC(N)=O)C(=O)N[C@@H](CCC(=O)O)C(=O)N[C@@H](Cc1ccccc1)C(=O)N[C@H](C(=O)N[C@@H](CC(N)=O)C(=O)N[C@@H](Cc1c[nH]c2ccccc12)C(=O)N[C@@H](CC(C)C)C(=O)N[C@@H](CC(C)C)C(=O)N[C@@H](C)C(=O)N[C@@H](CCC(N)=O)C(=O)N[C@@H](CCCCN)C(=O)NCC(=O)O)C(C)C)[C@@H](C)CC", "target": "Gastric inhibitory polypeptide receptor (GIPR, Homo sapiens, UniProt P48546)", "test": "cAMP production, antagonist", "test system": "BHK", "setting": "3 h, 37 °C, with: GIP 50 pM", "IC50 [µM]": 0.0487}
{"SMILES": "CC(=O)OC[C@H]1O[C@@H]([S-])[C@H](OC(C)=O)[C@@H](OC(C)=O)[C@@H]1OC(C)=O.CCP(CC)CC.[Au+]", "target": "Thioredoxin glutathione reductase (Schistosoma mansoni, UniProt Q962Y6)", "test": "enzyme activity, inhibitor, absorbance", "setting": "with preincubation", "IC50 [µM]": 0.02}
{"SMILES": "Cc1cc(O)cc2c1O[C@](C)(CCC[C@H](C)CCC[C@H](C)CCCC(C)C(=O)O)CC2 (stereo partly shown)", "target": "Prostaglandin G/H synthase 2 (PTGS2, Homo sapiens, UniProt P35354)", "test": "enzyme activity, inhibitor, ELISA", "IC50 [µM]": 4}
{"SMILES": "CCN1C[C@H](C)n2c(c(O)c3c(=O)n(Cc4ccc(F)c(Cl)c4)nc(C(=O)NC)c32)C1=O", "target": "Gag-Pol polyprotein, integrase (gag-pol, Human immunodeficiency virus 1, UniProt P12497)", "test": "enzyme activity, inhibitor", "IC50 [µM]": 0.042}
{"SMILES": "O=S1(=O)CCc2ccc(Nc3nc(NC4CCNC4)nc4ccnc(O)c34)cc21 (stereo not shown)", "target": "ROP18 (Toxoplasma gondii, UniProt Q2PAY2)", "test": "enzyme activity, inhibitor", "IC50 [µM]": "> 10"}
{"SMILES": "Nc1ncnc2c1ncn2[C@@H]1O[C@H](COP(=O)(O)O)[C@@H](OP(=O)(O)O)[C@H]1O", "target": "sfp (Bacillus subtilis, UniProt P39135)", "test": "phosphopantetheinylation, inhibitor, fluorescence polarization", "setting": "45 min, pH 7.6, 10% DMSO, with: VibB 10 µM and rhodamine-CoA 5 µM", "IC50 [µM]": "7 ± 1"}
{"SMILES": "CC1=C(C(=O)NC(=O)c2cnccn2)C(c2ccc(F)cc2)NC(=S)N1 (stereo not shown)", "target": "Cholinesterase (BCHE, Equus caballus, UniProt P81908)", "IC50 [µM]": "3.93 ± 0.01"}
{"SMILES": "O=c1cc(-c2ccc3c(c2)OCO3)[nH]c2ccccc12", "target": "Acetylcholinesterase (ACHE, Homo sapiens, UniProt P22303)", "test": "enzyme activity, inhibitor", "IC50 [µM]": "197 ± 18"}
{"SMILES": "O=c1[nH]c2ccccc2c(=O)o1", "target": "X-ray repair cross-complementing protein 6, with Ku80 (Homo sapiens, UniProt P12956)", "test": "Ku70-Ku80 heterodimerization, co-immunoprecipitation", "setting": "1 h preincubation, 23 °C", "IC50 [µM]": 3.2}
{"SMILES": "CCN1/C(=C/C(C)=O)Sc2ccc(OC)cc21", "target": "ERRα (human)", "test": "reporter gene, antagonist, luciferase reporter qHTS", "IC50 [µM]": 11.9}
{"SMILES": "N.N.N.N.N.N.[Co+3]", "target": "Magnesium transporter MRS2 homolog, mitochondrial (MRS2, Homo sapiens, UniProt Q9HD23, R332S)", "test": "sodium current, inhibitor, two-electrode voltage clamp", "test system": "Xenopus oocytes", "setting": "pH 7.4, room temperature, -60 mV holding potential, partial block", "IC50 [µM]": 300}
{"SMILES": "C[C@@H]1C[C@H]2[C@@H]3CCC4=CC(=O)C=C[C@]4(C)[C@@]3(Cl)[C@@H](O)C[C@]2(C)[C@@]1(OC(=O)c1ccco1)C(=O)CCl", "target": "Multidrug resistance-associated protein 1 (ABCC1, Homo sapiens, UniProt P33527)", "test": "efflux, inhibitor", "test system": "SupT1-Vin overexpressing ABCC1", "setting": "with: BODIPY FL verapamil 100 nM", "IC50 [µM]": "1.6 ± 1"}
{"note": "Repeated from above:"}
{"SMILES": "Cc1cc(O)cc2c1O[C@](C)(CCC[C@H](C)CCC[C@H](C)CCCC(C)C(=O)O)CC2 (stereo partly shown)", "target": "Prostaglandin G/H synthase 2 (PTGS2, Homo sapiens, UniProt P35354)", "test": "enzyme activity, inhibitor, ELISA", "IC50 [µM]": 4}
